Earlier results as cited in several papers.
Each numbered part shows a few of the values that one paper quotes. Values after ≈ are worked out from the molar mass of the structure shown.

Block 1
Organism: Cryptosporidium parvum
Method: high-throughput screen
Tested at: concentration not given
Quantity: activity
O=C(c1ccc(F)cc1)C1CCN(CCn2c(=S)[nH]c3ccccc3c2=O)CC1: inactive
CCOC(=O)c1ncn2c1CN(C)C(=O)c1cc(F)ccc1-2: inactive
CC(C)NCC(O)c1cc(O)cc(O)c1 (centres unmarked): inactive
CCC1(c2ccccc2)C(=O)NCNC1=O: inactive
CCOC(=O)C1=C(C)NC(C)=C(C(=O)OC)C1c1cccc([N+](=O)[O-])c1 (centres unmarked): inactive
COc1cc(N)c(Cl)cc1C(=O)NC1CCN(CCCOc2ccc(F)cc2)CC1OC.O (centres unmarked): inactive
Nc1ncnc2c1ncn2[C@@H]1O[C@H](CO)[C@@H](O)[C@@H]1O: inactive
COc1ccc2[n-]c([S+]([O-])Cc3ncc(C)c(OC)c3C)nc2c1.COc1ccc2[n-]c([S+]([O-])Cc3ncc(C)c(OC)c3C)nc2c1.[Mg+2] (centres unmarked): inactive
CC(=O)NC[C@H]1CN(c2ccc(N3CCOCC3)c(F)c2)C(=O)O1: inactive
Nc1ccc(O)c(C(=O)O)c1: inactive
COc1ccccc1OCC(O)CN1CCN(CC(=O)Nc2c(C)cccc2C)CC1 (centres unmarked): inactive
CC[C@]1(O)C[C@@H]2CN(CCc3c([nH]c4ccccc34)[C@@](C(=O)OC)(c3cc4c(cc3OC)N(C)[C@H]3[C@@](O)(C(N)=O)[C@H](O)[C@]5(CC)C=CCN6CC[C@]43[C@@H]65)C2)C1: inactive
CC(=O)O[C@]1(C(C)=O)CC[C@H]2[C@@H]3C[C@H](C)C4=CC(=O)CC[C@]4(C)[C@H]3CC[C@@]21C: inactive
COc1cc(/C=C/c2ccc(O)cc2)cc(OC)c1: inactive
COCCCOc1ccnc(C[S+]([O-])c2nc3ccccc3[nH]2)c1C (centres unmarked): inactive
O=C(N[C@H](CO)[C@H](O)c1ccc([N+](=O)[O-])cc1)C(Cl)Cl: inactive
CCN1CCC[C@H]1CNC(=O)c1c(O)c(Cl)cc(Cl)c1OC: inactive
CC(C)(C)NC[C@H](O)COc1nsnc1N1CCOCC1: inactive
COc1cc2nc(N(C)CCCNC(=O)C3CCCO3)nc(N)c2cc1OC (centres unmarked): inactive
CO/N=C(\C(=O)N[C@@H]1C(=O)N2C(C(=O)O)=C(COC(N)=O)CS[C@H]12)c1ccco1: inactive
Nc1nc(N)c2nc(-c3ccccc3)c(N)nc2n1: inactive
CCn1cc(C(=O)O)c(=O)c2cc(F)c(N3CCN(C)CC3)cc21: inactive
CC(=O)CCCCn1cnc2c1c(=O)n(C)c(=O)n2C: inactive
COc1ccc(CCN(C)CCCC(C#N)(c2ccc(OC)c(OC)c2)C(C)C)cc1OC.Cl.O (centres unmarked): inactive
O=C(NCCN1CCOCC1)c1ccc(Cl)cc1: inactive

Further values, each from its own experiment
CO[C@H]1C[C@@H]2CC[C@@H](C)[C@@](O)(O2)C(=O)C(=O)N2CCCC[C@H]2C(=O)O[C@H]([C@H](C)C[C@@H]2CC[C@@H](O)[C@H](OC)C2)CC(=O)[C@H](C)/C=C(\C)[C@@H](O)[C@@H](OC)C(=O)[C@H](C)C[C@H](C)/C=C/C=C/C=C/1C  fraction unbound in microsomal incubation (recombinant human CYP3A5): 0.43
Cn1c(=O)c2[nH]cnc2n(C)c1=O  Ki (alkaline phosphatase; inhibitor): 82000 nM
CC1(C)CCC(CN2CCN(c3ccc(C(=O)NS(=O)(=O)c4ccc(NCC5CCOCC5)c([N+](=O)[O-])c4)c(Oc4cnc5[nH]ccc5c4)c3)CC2)=C(c2ccc(Cl)cc2)C1  absolute bioavailability (human, fasted; oral): 5.4%
CCCCC(CC)COC(=O)CC(C(=O)OCC(CC)CCCC)S(=O)(=O)O (centres unmarked)  pKa: -0.75
O=C(Nc1ccc(OC(F)(F)Cl)cc1)c1cnc(N2CC[C@@H](O)C2)c(-c2ccn[nH]2)c1  Tmax (healthy male humans; oral, dose not given): 2 h
C[C@@H](c1ccc(-c2ccn(C)c(=O)c2)cc1)N1CC[C@](CC(C)(C)O)(c2ccccc2)OC1=O  inhibition (11β-HSD1; concentration not given, 24 h after dose, day 14, continuous daily treatment): inhibited
CC(C)CCN[C@@H]1CCc2cc(O)c(N3CC(=O)NS3(=O)=O)c(F)c2C1  IC50 (PTPN2; enzyme activity, inhibitor, in vitro): 2.5 nM
CC[C@H](C)[C@H](N)C(=O)N[C@@H](CC(C)C)C(=O)N[C@@H](CCCNC(=N)N)C(=O)N[C@@H](Cc1c[nH]c2ccccc12)C(=O)N1CCC[C@H]1C(=O)N[C@@H](Cc1c[nH]c2ccccc12)C(=O)N[C@@H](Cc1c[nH]c2ccccc12)C(=O)N1CCC[C@H]1C(=O)N[C@@H](Cc1c[nH]c2ccccc12)C(=O)N[C@@H](CCCNC(=N)N)C(=O)N[C@@H](CCCNC(=N)N)C(=O)N[C@@H](CCCCN)C(N)=O  MIC (Staphylococcus aureus; ATCC 33591): 64 µg/mL (≈ 36 µM)
Cn1c(=O)c2c(ncn2C)n(C)c1=O  log kW IAM (IAM chromatography): 0.31
NC(=O)N1c2ccccc2C=Cc2ccccc21  solubility (FaSSIF; literature value): 236 µg/mL (≈ 1000 µM)
CC[C@H](C)[C@H](NC(=O)CN)C(=O)NCC(=O)N[C@@H](CCCCN)C(=O)N[C@@H](Cc1ccccc1)C(=O)N[C@@H](CC(C)C)C(=O)N[C@@H](CCCCN)C(=O)N[C@@H](CCCCN)C(=O)N[C@@H](C)C(=O)N[C@@H](CCCCN)C(=O)N[C@@H](CCCCN)C(=O)N[C@@H](Cc1ccccc1)C(=O)NCC(=O)N[C@@H](CCCCN)C(=O)N[C@@H](C)C(=O)N[C@@H](Cc1ccccc1)C(=O)N[C@H](C(=O)N[C@@H](CCCCN)C(=O)N[C@H](C(=O)N[C@@H](CC(C)C)C(=O)N[C@@H](CCCCN)C(=O)N[C@@H](CCCCN)C(N)=O)[C@@H](C)CC)C(C)C  MIC (Staphylococcus aureus; ATCC 33591): 32 µg/mL (≈ 12.9 µM)
CC[C@@H]1C(=O)N(C)c2cnc(Nc3ccc(C(=O)N[C@H]4CC[C@H](N5CCN(CC6CC6)CC5)CC4)cc3OC)nc2N1C(C)C  IC50 (PLK3; inhibitor): 56 nM
CN([C@@H]1CCc2c(CC(=O)O)c3ccccc3n2C1)S(=O)(=O)c1ccc(F)cc1  Ki (PTGDR2): 2.5 nM
Cc1nsc(-c2nnc3n2CCN(C(=O)c2ccc(F)cc2)[C@@H]3C)n1  CL/F (human non-smokers; oral, highest reported mean, DDI cohort): 22.9 L/h
CC(C)Nc1nc2cc(Cl)c(Cl)cc2n1[C@H]1O[C@@H](CO)[C@H](O)[C@@H]1O  Tmax (human; oral, dose not given): 1 to 3 h
O=c1oc2c(O)c(O)cc3c(=O)oc4c(O)c(O)cc1c4c23  solubility: < 10 µg/mL
CC(C)(O)CNc1nc(Nc2ccnc(C(F)(F)F)c2)nc(-c2cccc(C(F)(F)F)n2)n1  Tmax (human; 100 mg): 4 h
COc1cc(-c2cn(C3CCc4ccccc4N(CC(F)(F)F)C3=O)nn2)ccc1-n1ccc(C)n1 (centres unmarked)  IC50 (gamma-secretase complex (human); cellular activity): > 10000 nM
CNC(=O)c1cc(F)c(-c2nc3cc(C)ccn3c2C[C@H]2CN(C(=O)OC)CCO2)c(F)c1  IC50 (P2X3 (rat)): 92 nM
CC/C=C\C/C=C\C/C=C\C/C=C\C/C=C\C/C=C\CCC(=O)O  pKa: 4.89
O=C1OC2(c3ccc(O)cc3Oc3cc(O)ccc32)c2ccccc21  fluorescence quantum yield (NaOH solution): 0.92
O=C(Cc1ccccc1)Nc1nnc(N2C[C@H]3C[C@@H]2CN3c2cccnn2)s1  IC50 (GLS; cell-based): 11 nM
CCc1cc2c(cc1N1CCC(N3CCOCC3)CC1)C(C)(C)c1[nH]c3cc(C#N)ccc3c1C2=O  solubility (FaSSIF; literature value): 23 µg/mL (≈ 47.7 µM)
CC1=C(C#N)C(c2ccc3c(c2)c(NC(=O)c2ccccc2C)nn3C)C(C#N)=C(C)N1  IC50 (PRKAA1; enzyme activity): > 20000 nM
Cc1cn(-c2cc(NC(=O)c3ccc(C)c(Nc4nccc(-c5cccnc5)n4)c3)cc(C(F)(F)F)c2)cn1  IC50 (MCF-7): 403 nM

A few entries again (further values, each from its own experiment):
CC[C@@H]1C(=O)N(C)c2cnc(Nc3ccc(C(=O)N[C@H]4CC[C@H](N5CCN(CC6CC6)CC5)CC4)cc3OC)nc2N1C(C)C  IC50 (PLK3; inhibitor): 56 nM
CN([C@@H]1CCc2c(CC(=O)O)c3ccccc3n2C1)S(=O)(=O)c1ccc(F)cc1  Ki (PTGDR2): 2.5 nM
Cc1nsc(-c2nnc3n2CCN(C(=O)c2ccc(F)cc2)[C@@H]3C)n1  CL/F (human non-smokers; oral, highest reported mean, DDI cohort): 22.9 L/h
CC(C)Nc1nc2cc(Cl)c(Cl)cc2n1[C@H]1O[C@@H](CO)[C@H](O)[C@@H]1O  Tmax (human; oral, dose not given): 1 to 3 h
O=c1oc2c(O)c(O)cc3c(=O)oc4c(O)c(O)cc1c4c23  solubility: < 10 µg/mL
CC(C)(O)CNc1nc(Nc2ccnc(C(F)(F)F)c2)nc(-c2cccc(C(F)(F)F)n2)n1  Tmax (human; 100 mg): 4 h
COc1cc(-c2cn(C3CCc4ccccc4N(CC(F)(F)F)C3=O)nn2)ccc1-n1ccc(C)n1 (centres unmarked)  IC50 (gamma-secretase complex (human); cellular activity): > 10000 nM
CNC(=O)c1cc(F)c(-c2nc3cc(C)ccn3c2C[C@H]2CN(C(=O)OC)CCO2)c(F)c1  IC50 (P2X3 (rat)): 92 nM
